Published values from different studies.
Every numbered part comes from another study and shows a few of its results, in no order. Positions count from the first letter of the parent shown.

Study 1 — technique: competition protein-binding microarray; molecule type: double-stranded DNA, one strand shown; matrix: in vitro; tested at: 2 µM; with: Cbf1 competitor, 0.05 µM; reading: higher = stronger binding; endpoint: fluorescence intensity
Target: Phosphate system positive regulatory protein PHO4, full length, GST-tagged (PHO4, Saccharomyces cerevisiae, UniProt P07270, residues 1-312)
Setting: whole 60-bp probe, lowest competitor level
Construct (chain): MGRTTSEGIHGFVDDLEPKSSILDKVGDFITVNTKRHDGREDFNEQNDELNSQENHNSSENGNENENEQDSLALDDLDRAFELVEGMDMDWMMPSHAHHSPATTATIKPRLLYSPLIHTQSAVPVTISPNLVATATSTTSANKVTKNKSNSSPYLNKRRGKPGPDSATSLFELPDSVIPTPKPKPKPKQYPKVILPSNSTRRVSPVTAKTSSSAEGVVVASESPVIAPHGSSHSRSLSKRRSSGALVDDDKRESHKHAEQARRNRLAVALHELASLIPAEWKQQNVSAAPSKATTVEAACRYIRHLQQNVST
TGCGCAACAACTTTTCACGTGCAGTTATGTCTAGAAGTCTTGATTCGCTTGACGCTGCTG: 14500 a.u.
CCGGGGACGACGCTCCTCGTGCTTTCTTCCCATCTAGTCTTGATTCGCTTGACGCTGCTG: 12300 a.u.
GCTGCTTTACAAGAACACATGAAAAATCCAGAAGTAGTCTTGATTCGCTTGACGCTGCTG: 4520 a.u.
TTCCAGTGTTTCTTATCCGTGATGGTTTAATGGTCAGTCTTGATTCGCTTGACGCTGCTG: 4400 a.u.
CTAACGAAGGTTTGTCACGTTACTTACAAGCCAAGTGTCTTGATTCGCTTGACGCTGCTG: 8240 a.u.
GAAGGTGCCTCTTCCCACATGGCCGAGCCCTCGCCGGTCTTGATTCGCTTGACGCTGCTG: 8140 a.u.
ATACGACTCCCAACACACGTTTAATGTTGTACGAATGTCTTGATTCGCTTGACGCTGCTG: 11900 a.u.
AAATCGTCAGTAAAGTCAGAGTAATGATTTTTCACTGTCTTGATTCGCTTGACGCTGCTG: 3000 a.u.
GTCTTGTCTCATTGGTTTGTGGGTGTCCCCACTTCAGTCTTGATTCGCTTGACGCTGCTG: 4640 a.u.

Study 2 — technique: protein-binding microarray; molecule type: double-stranded DNA, one strand shown; matrix: in vitro; tested at: 2540 nM top; setting: 60-bp whole probe; with: salmon DNA 0.4 mg/ml; reference: random background probes; reading: higher = stronger binding; endpoint: fitted relative affinity; shared flanks, not repeated: GCCTAGCAC … GTCTTGATTCGCTTGACGCTGCTG
Target: Interferon regulatory factor 3, full length, phosphomimetic (IRF3, Homo sapiens, UniProt Q14653, residues 1-427, S386D/S396D/S398D/S402D/T404D/S405D)
UniProt Q14653, sequence (whole entry, unmodified, looked up): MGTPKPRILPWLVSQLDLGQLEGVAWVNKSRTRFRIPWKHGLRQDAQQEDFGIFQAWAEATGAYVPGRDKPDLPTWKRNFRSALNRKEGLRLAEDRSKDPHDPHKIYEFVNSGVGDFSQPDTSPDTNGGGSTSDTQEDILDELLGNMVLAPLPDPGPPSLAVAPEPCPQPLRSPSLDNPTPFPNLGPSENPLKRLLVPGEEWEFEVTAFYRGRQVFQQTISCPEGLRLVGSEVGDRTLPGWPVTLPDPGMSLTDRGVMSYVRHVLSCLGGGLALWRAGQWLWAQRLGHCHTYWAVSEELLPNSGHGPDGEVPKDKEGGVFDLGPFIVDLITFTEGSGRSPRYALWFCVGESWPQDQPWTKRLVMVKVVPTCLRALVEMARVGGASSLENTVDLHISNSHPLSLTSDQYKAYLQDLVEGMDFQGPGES
TGAGGTTTCCTTTCCCTTTAGTGCTAG: 10.5 z-score
TTCGGACTGCTACTGCTTTAGTGCTAG: -0.652 z-score
GACGGTTTCATTTTCCTGACGTGCTAG: 6.2 z-score
TCACCTTCACCTCTCTGACTGTGCTAG: 0.539 z-score
TTAGGTCTCGACTTTCGGTTAGTGCTA: 1.04 z-score
TTAGGACTGGGACTGGGGTAGTGCTAG: -1 z-score
GACGTTATCGGGACTGGGGACGTGCTA: 0.337 z-score
TTAGGTTTCCTACTGCTTTAGTGCTAG: 4.66 z-score
GACGAACAGGGGACTGGAGACGTGCTA: -0.563 z-score
GACGATTTCAGTAACGAGACGTGCTAG: 1.14 z-score
TTGCCTCTGCTGCTGGCCGCGTGCTAG: -0.716 z-score
GACGATCTCAGTATCGACACGTGCTAG: 0.859 z-score
GCCGATTCCAGTTTCGAGACGTGCTAG: 3.96 z-score
TTAGATTTCGGTATCGGTTAGTGCTAG: 5.82 z-score

Study 3 — target: CCND3, cyclin fold, Cln2 fusion (human); technique: yeast growth competition, sequencing; matrix: yeast; setting: weak parent motif; reference: not given; reading: higher = stronger binding; endpoint: normalised enrichment score
Starting sequence: ASZ1 docking peptide (human); GFGFLLFICKLTF; partner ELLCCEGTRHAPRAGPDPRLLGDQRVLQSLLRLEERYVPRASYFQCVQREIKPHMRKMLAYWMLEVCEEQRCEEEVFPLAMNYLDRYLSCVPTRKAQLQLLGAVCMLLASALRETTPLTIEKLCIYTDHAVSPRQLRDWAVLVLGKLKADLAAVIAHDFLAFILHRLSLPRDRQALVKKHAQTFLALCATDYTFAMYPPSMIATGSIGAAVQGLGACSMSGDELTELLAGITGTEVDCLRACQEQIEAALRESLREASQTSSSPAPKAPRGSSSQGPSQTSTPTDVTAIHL
GFGFLLFICALTF [K10A]: 0.0341
GFGFLAFICKLTF [L6A]: -0.343
GFGFLLAICKLTF [F7A]: -0.238
GAGFLLFICKLTF [F2A]: -0.0606
GFGFLLFACKLTF [I8A]: -0.0445
AFGFLLFICKLTF [G1A]: -0.11

Other studies, line by line
PhoQ, residues 284 288 289 292 302 303 NSMLDC
fold induction (PhoP, residues 12 14 15 18 19 GQALL (Escherichia coli, UniProt P23836); Sort-seq, refers to: YFP reporter; E. coli; PhoQ-PhoP variant library, with: 10 µM Mg2+; reference: high Mg2+ state, higher = stronger signaling): 9.53

Some of these lines once more (study 2):
GACGGTTTCATTTTCCTGACGTGCTAG: 6.2 z-score
TCACCTTCACCTCTCTGACTGTGCTAG: 0.539 z-score
TTAGGTCTCGACTTTCGGTTAGTGCTA: 1.04 z-score
TTAGGACTGGGACTGGGGTAGTGCTAG: -1 z-score
